Published values of several laboratories.
A part holds a random share of what one study measured.

Study 1
Target: Histone acetyltransferase KAT6A, winged helix 2, GST fusion (KAT6A, Homo sapiens, UniProt Q92794, residues 85-181)
Method: protein binding microarray
Molecule type: double-stranded DNA, one strand shown
Sample: in vitro
Concentration: not given
Notes: 8-mer, flanks averaged, mean of 2 arrays, mostly near background
Relative to: not given
Reading: higher = stronger binding
Residues (chain): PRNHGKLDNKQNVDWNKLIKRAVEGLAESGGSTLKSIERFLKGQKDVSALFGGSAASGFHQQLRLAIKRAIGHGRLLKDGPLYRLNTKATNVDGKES
Sequence | E-score
CATGAGTA | -0.0646
CGGTGCAG | 0.0847
GAGCTATC | 0.0103
CCGCTAGG | 0.141
ACCATCTG | -0.0603
CTTGATTC | -0.00876
GCGCGCCC | 0.141
CCACGGAA | 0.116
CATCGTGC | 0.0601
AGGCGTAG | -0.0421
CTAGACAC | -0.0574

Study 2
Target: Interferon regulatory factor 5, full length, phosphomimetic (IRF5, Homo sapiens, UniProt Q13568-2, residues 1-514, K96S/S451D/S453D/S456D/S462D)
Method: protein-binding microarray
Molecule type: double-stranded DNA, one strand shown
Sample: in vitro
Concentration: 250 nM
Notes: 60-bp whole probe
Added: salmon DNA 0.4 mg/ml
Relative to: random background probes
Reading: higher = stronger binding
All sequences stand within: GCCTAGCAC … GTCTTGATTCGCTTGACGCTGCTG
Sequence | log fluorescence
TTAGGTAGCCTTATCCTTTAGTGCTAG | -0.453 z-score
ATAGATATCGGGACTGGATTAGTGCTA | 1.22 z-score
CTGGTTTTACTTTCTATCTCGTGCTAG | 5.1 z-score
TTAGATAACAGTATCGATTAGTGCTAG | 6.59 z-score
GACGGTATCGACTTTCGGGCCGTGCTA | 6.09 z-score
TTAGGTATCGGAATGGGTTAGTGCTAG | 2.74 z-score
TTAGGTCCCCTTATCCTTTAGTGCTAG | -0.194 z-score
TACGGACTGGACACTGGGGACGTGCTA | -0.403 z-score
CCCTTTCTCTCTGTGACACAGTGCTAG | 1.84 z-score
TGAGGTTTCGGGTTTCGGTTAGTGCTA | 9.25 z-score

Study 3
Target: TAR DNA-binding protein 43, full length, His tag (TARDBP, Homo sapiens, UniProt Q13148, residues 1-414)
Method: RNA Bind-n-Seq
Molecule type: RNA
Sample: in vitro
Concentration: 20 nM
Notes: 6-mer, flanks averaged, single round
Added: 150 mM LiCl
Relative to: input library
Reading: higher = stronger binding
Sequence | 6-mer enrichment (R)
UGACGC | 0.929
GCGGUU | 1.04
AUGUAG | 1.07
GGAGAG | 1.22
CAUUGU | 0.971
GAAUAU | 0.922
AGGCGC | 0.967

Other studies, line by line
Molecule | target | assay | test system | conditions | how to read | measurement | result
PhoQ, residues 284 288 289 292 302 303 SQSLSM | PhoP, residues 12 14 15 18 19 NQCAL (Escherichia coli, UniProt P23836) | Sort-seq, measured: YFP reporter | E. coli | PhoQ-PhoP variant library, added: 10 µM Mg2+ | relative to: high Mg2+ state, higher = stronger signaling | fold induction | 2.43
